Experimental data gathered from unrelated publications.
± marks the error that the study gave.
Method: steady-state kinetics
B1: protein (Rheum palmatum, UniProt A0A7L9A2S6); chain MKKTELVFLPAPAPGHLVSTVEFSKRLIARDARLTVTILVISSPFSRGAQTNPSPGIRYVTLPQVDVPQHLMKDSIEHTISVYIASHAPHVRDAVAALQTESTVHVAGLFLDMFCTPMIDVANELGLPSYVFFCSSAGFLGLLLHLPVHSQPRFDETGLDVLIPSFQNPVPTRVLPRFGFNELGYKSFMDHAKRFGETKGIIINTYAELEPYALKSLLDAYDTAPVYAVGPVLDLRSQVHMPCDAAERARIMGWLDKQPDSSVVFLCFGSGGSFSEHQIREISKGLSQSGQRFLWSVRKPPTGGLVKPTEYTETELRSVLGDEFWSLLDEGERGVVCGWAPQVEVLGHKSVGAFVSHCGWNSTLESLWFGKPMVTWPLYAEQQMNAFELVKELGIAVELTLDYRLHSSEVVEAREVERAVRRVMDENNPVRYKVKEMAEVCRATLVEGGSSFVCVDRLISGFLGEIN
B2: Tat (Mus musculus, UniProt Q8QZR1); chain WNVRPSDMSNKTFNPIRAIVDNMKVKPNPNKTVISLSIGDPTVFGNLPTDPEVTQAMKDALDSGKYNGYAPSIGYLSSREEVASYYHCPEAPLEAKDVILTSGCSQAIELCLAVLANPGQNILIPRPGFSLYRTLAESMGIEVKLYNLLPEKSWEIDLKQLESLIDEKTACLVVNNPSNPCGSVFSKRHLQKILAVAERQCVPILADEIYGDMVFSDCKYEPMATLSTNVPILSCGGLAKRWLVPGWRLGWILIHDRRDIFGNEIRDGLVKLSQRILGPCTIVQGALKSILQRTPQEFYQDTLSFLKSNADLCYGALSAIPGLQPVRPSGAMYLMVGIEMEHFPEFENDVEFTERLIAEQSVHCLPATCFEYPNFFRVVITVPEVMMLEACSRIQEFCEQHY
B3: SULT1A1 I89A (Homo sapiens, UniProt P50225); chain MELIQDTSRPPLEYVKGVPLIKYFAEALGPLQSFQARPDDLLISTYPKSGTTWVSQILDMIYQGGDLEKCHRAPIFMRVPFLEFKAPGAPSGMETLKDTPAPRLLKTHLPLALLPQTLLDQKVKVVYVARNAKDVAVSYYHFYHMAKVHPEPGTWDSFLEKFMVGEVSYGSWYQHVQEWWELSRTHPVLYLFYEDMKENPKREIQKILEFVGRSLPEETVDFVVQHTSFKEMKKNPMTNYTTVPQEFMDHSISPFMRKGMAGDWKTTFTVAQNERFDADYAEKMAGCSLSFRSEL
B4: Mj-MAT W387F/Y72W (Methanocaldococcus jannaschii, UniProt Q58605); chain MRNIIVKKLDVEPIEERPTEIVERKGLGHPDSICDGIAESVSRALCKMYMEKFGTILHHNTDQVELVGGHAWPKFGGGVMVSPIYILLSGRATMEILDKEKNEVIKLPVGTTAVKAAKEYLKKVLRNVDVDKDVIIDCRIGQGSMDLVDVFERQKNEVPLANDTSFGVGYAPLSTTERLVLETERFLNSDELKNEIPAVGEDIKVMGLREGKKITLTIAMAVVDRYVKNIEEYKEVIEKVRKKVEDLAKKIADGYEVEIHINTADDYERESVYLTVTGTSAEMGDDGSVGRGNRVNGLITPFRPMSMEAASGKNPVNHVGKIYNILANLIANDIAKLEGVKECYVRILSQIGKPINEPKALDIEIITEDSYDIKDIEPKAKEIANKFLDNIMEVQKMIVEGKVTTF
B5: oxdC (Bacillus subtilis, UniProt O34714); chain MKKQNDIPQPIRGDKGATVKIPRNIERDRQNPDMLVPPETDHGTVSNMKFSFSDTHNRLEKGGYAREVTVRELPISENLASVNMRLKPGAIRELHWHKEAEWAYMIYGSARVTIVDEKGRSFIDDVGEGDLWYFPSGLPHSIQALEEGAEFLLVFDDGSFSENSTFQLTDWLAHTPKEVIAANFGVTKEEISNLPGKEKYIFENQLPGSLKDDIVEGPNGEVPYPFTYRLLEQEPIESEGGKVYIADSTNFKVSKTIASALVTVEPGAMRELHWHPNTHEWQYYISGKARMTVFASDGHARTFNYQAGDVGYVPFAMGHYVENIGDEPLVFLEIFKDDHYADVSLNQWLAMLPETFVQAHLDLGKDFTDVLSKEKHPVVKKKCSK
B6: TBM M536C (Drosophila melanogaster, UniProt Q86B61); chain TFMPVMLLLLMATLLTRPLSAFSNRLSDTKLHEIYLDDKEIKLSWMVDWYKQEVLFHLQNAFNEQHRWFYLGFSKRGGLADADICFFENQNGFFNAVTDTYTSPDGQWVRRDYQQDCEVFKMDEFTLAFRRKFDTCDPLDLRLHEGTMYVVWARGETELALEDHQFALPNVTAPHEAGVKMLQLLRADKILIPETELDHMEITLQEAPIPSQETTYWCHVQRLEGNLRRRHHIVQFEPLIRTPGIVHHMEVFHCEAGEHEEIPLYNGDCEQLPPRAKICSKVMVLWAMGAGTFTYPPEAGLPIGGPGFNPYVRLEVHFNNPEKQSGLVDNSGFRIKMSKTLRQYDAAVMELGLEYTDKMAIPPGQTAFPLSGYCVADCTRAALPATGIIIFGSQLHTHLRGVRVLTRHFRGEQELREVNRDDYYSNHFQEMRTLHYKPRVLPGDALVTTCYYNTKDDKTAALGGFSISDECCVNYIHYYPATKLEVCKSSVSEETLENYFIYMKRTEHQHGVHLNGARSSNYRSIEWTQPRIDQLYTMYMQEPLSMQCNRSDGTRFEGRSSWEGVAATPVQIRIPIHRKLCPNYNPLWLKPLEKGDCDLLGECIY
B7: YeiR (Escherichia coli, UniProt P33030); chain MTRTNLITGFLGSGKTTSILHLLAHKDPNEKWAVLVNEFGEVGIDGALLADSGALLKEIPGGCMCCVNGLPMQVGLNTLLRQGKPDRLLIEPTGLGHPKQILDLLTAPVYEPWIDLRATLCILDPRLLLDEKSASNENFRDQLAAADIIVANKSDRTTPESEQALQRWWQQNGGDRQLIHSEHGKVDGHLLDLPRRNLAELPASAAHSHQHVVKKGLAALSLPEHQRWRRSLNSGQGYQACGWIFDADTVFDTIGILEWARLAPVERVKGVLRIPEGLVRINRQGDDLHIETQNVAPPDSRIELISSSEADWNALQSALLKLRLATTA
B8: BaiA2 (Clostridium scindens, UniProt P19337); chain MNLVQDKVTIITGGTRGIGFAAAKIFIDNGAKVSIFGETQEEVDTALAQLKELYPEEEVLGFAPDLTSRDAVMAAVGQVAQKYGRLDVMINNAGITSNNVFSRVSEEEFKHIMDINVTGVFNGAWCAYQCMKDAKKGVIINTASVTGIFGSLSGVGYPASKASVIGLTHGLGREIIRKNIRVVGVAPGVVNTDMTNGNPPEIMEGYLKALPMKRMLEPEEIANVYLFLASDLASGITATTVSVDGAYRP
B9: sacB Y421F (Priestia megaterium, UniProt D5DC07); chain KGNDSKDFNNSYGISHITRDNMVKIPQQQNSDQFKVPAFDESTIKNIASAKGKNASGNTIDLDVWDSWPLQNADGTVATYHGYQIVFALAGDPKDSNDTSVYLFYKKAGDKSIDSWKNAGRVFKDSDKFVPNDPHLKNQTQEWSGSGTLTKDGKVRLFYTDYSGKQYGKQTLTTAQVNMSQPNDNTLKVDGVEDYKSIFDGDGKIYQTVQQFIDEGGYDTGDNHTLRDPHYIEDNGHKYLVFEANTGTEDGYQGEDSLYNRAYYGGNNPFFQSEKKKLLEGSNKEKASLANGALGIIELNDDYTLKKVMKPLITSNTVTDEIERANIFKKDGKWYLFTDSRGSKMTIDGIGQDDVYMLGYVSNTLTGKYKPLNDTGLVLHMDLDPNDKTFTFSHFAVPQTKGDNVVITSYMTNRGFYEDNHSTFAPSFLVNIDGSKTSVVKDRVLEQGQLTVDED
B10: FDC1 (Saccharomyces cerevisiae, UniProt Q03034); chain MRKLNPALEFRDFIQVLKDEDDLIEITEEIDPNLEVGAIMRKAYESHLPAPLFKNLKGASKDLFSILGCPAGLRSKEKGDHGRIAHHLGLDPKTTIKEIIDYLLECKEKEPLPPITVPVSSAPCKTHILSEEKIHLQSLPTPYLHVSDGGKYLQTYGMWILQTPDKKWTNWSIARGMVVDDKHITGLVIKPQHIRQIADSWAAIGKANEIPFALCFGVPPAAILVSSMPIPEGVSESDYVGAILGESVPVVKCETNDLMVPATSEMVFEGTLSLTDTHLEGPFGEMHGYVFKSQGHPCPLYTVKAMSYRDNAILPVSNPGLCTDETHTLIGSLVATEAKELAIESGLPILDAFMPYEAQALWLILKVDLKGLQALKTTPEEFCKKVGDIYFRTKVGFIVHEIILVADDIDIFNFKEVIWAYVTRHTPVADQMAFDDVTSFPLAPFVSQSSRSKTMKGGKCVTNCIFRQQYERSFDYITCNFEKGYPKGLVDKVNENWKRYGYK
B11: HCT R356E (Coleus scutellarioides, UniProt E8ZAP2); chain MKIHVRDSTLVRPSAATPAVSLWNSNVDLVVPNFHTPSVYFYRPSGADNFFDTAVMKAALGRALVSFYPMAGRLKRDEDGRVEIDCNAEGVLFVEAESDGTVDDYGDFAPSLELRRLIPAVDYSQGISAYPLLVLQVTFFKCGGVSLGVGMQHHAADGFSGLHFINTWSDMARGLDITLPPFIDRTLLSARDPPQPQFKHVEYQPPPAMKTYEPAETVVSIFKLTKDQLTTLKAKSKEDGNTTTYSSYEMLSGHVWRCTCLARGLPEEQETKLYIATDGRSRLQPQLPPGYFGNVIFTATPLAVAGDLGSKPVWYAASKIHDALARMDNDYLRSALDFLELQPDLKALVRGAHTFECPNLGITSWVRLPIHDADFGWGRPIFMGPGGIAYEGLSFVLPSPTNDGSLSVAISLQAEHMKLFEKLLYQI
B12: enzyme (Acinetobacter baumannii, UniProt D0CBC8); chain MALVLDGRALAKQIEENLLVRVEALKAKTGRTPILATILVGDDGASATYVRMKGNACRRVGMDSLKIELPQETTTEQLLAEIEKLNANPDVHGILLQHPVPAQIDERACFDAISLAKDVDGVTCLGFGRMAMGEAAYGSATPAGIMTILKENNIEIAGKHAVVVGRSAILGKPMAMMLLQANATVTICHSRTQNLPELVKQADIIVGAVGKAELIQKDWIKQGAVVVDAGFHPRDGGGVGDIQLQGIEEIASAYTPVPGGVGPMTITTLIRQTVEAAEKALG

Sequence | substrate | pH | temperature | setting | with | kcat
B1 (protein) | COc1cc(-c2oc3cc(O)cc(O)c3c(=O)c2O)ccc1O | pH 7.5 | 35 °C | apparent | UDP-glucose | 0.0052 ± 0.00035 s⁻¹
B2 (Tat) | N[C@@H](Cc1ccc(O)cc1)C(=O)O | pH 7 | 38 °C | 100 mM phosphate | 10 mM KGA; PLP | 19.3 ± 4 s⁻¹
B3 (SULT1A1 I89A) | Oc1ccc2ccccc2c1 | pH 7.2 | 25 °C | – | PAPS 0.020–0.50 µM | 5.8 s⁻¹
B4 (Mj-MAT W387F/Y72W) | CSCC[C@H](N)C(=O)O | – | 55 °C | – | ATP 2.5 mM, methionine 0.05-1 mM | 1.62 ± 0.15 s⁻¹
B5 (oxdC) | O=C(O)C(=O)O | pH 4.2 | 25 °C | – | – | 30 ± 1 s⁻¹
B6 (TBM M536C) | NCCc1ccc(O)cc1 | pH 6 | 35 °C | KCl 0.1 M, apparent Km, apparent | ascorbate 50 mM, CuSO4 15 µM | 0.45 s⁻¹
B7 (YeiR) | Nc1nc2c(ncn2[C@@H]2O[C@H](COP(=O)(O)OP(=O)(O)OP(=O)(O)O)[C@@H](O)[C@H]2O)c(=O)[nH]1 | pH 7.5 | 37 °C | apo, anaerobic | – | 0.00317 ± 0.0005 s⁻¹
B8 (BaiA2) | C[C@H](CCC(=O)SCCNC(=O)CCNC(=O)[C@H](O)C(C)(C)COP(=O)(O)OP(=O)(O)OC[C@H]1O[C@@H](n2cnc3c(N)ncnc32)[C@H](O)[C@@H]1OP(=O)(O)O)[C@H]1CC[C@H]2[C@@H]3[C@H](O)C[C@@H]4CC(=O)CC[C@]4(C)[C@H]3C[C@H](O)[C@]12C | pH 8.7 | 37 °C | – | NADH | 0.138 s⁻¹
B9 (sacB Y421F) | OC[C@H]1O[C@@](CO)(O[C@H]2O[C@H](CO)[C@@H](O)[C@H](O)[C@H]2O)[C@@H](O)[C@@H]1O | pH 6.6 | – | – | – | 17.5 ± 1.6 s⁻¹
B10 (FDC1) | O=C(O)/C=C/c1ccc(O)cc1 | pH 7 | 25 °C | apparent kcat, incomplete cofactor occupancy, apparent | – | 1.5 ± 0.1 s⁻¹
B11 (HCT R356E) | NCCc1ccc(O)c(O)c1 | pH 8 | – | pseudo-first-order | p-coumaroyl CoA | 1.01 ± 0.02 s⁻¹
B12 (enzyme) | Nc1nc2c(c(=O)[nH]1)[N+]1=CN(c3ccc(C(=O)N[C@@H](CCC(=O)O)C(=O)[O-])cc3)C[C@H]1CN2 | pH 7.3 | 27 °C | – | – | 142 ± 11.3 s⁻¹

Some of these lines once more:
Sequence | substrate | pH | temperature | setting | with | kcat
B6 (TBM M536C) | NCCc1ccc(O)cc1 | pH 6 | 35 °C | KCl 0.1 M, apparent Km, apparent | ascorbate 50 mM, CuSO4 15 µM | 0.45 s⁻¹
